Experimental data collected from several papers.
Compare with care: the assays were run in different laboratories. “And” joins repeats or separate records; there may be more than shown. ± marks the error that the study gave.

With `CC[C@H](C)[C@H](NC(=O)[C@H](CCCCN)NC(=O)CNC(=O)[C@H](CC(C)C)NC(=O)[C@H](Cc1ccccc1)NC(=O)[C@H](CCCCN)NC(=O)[C@H](CO)NC(=O)[C@H](Cc1ccccc1)NC(=O)[C@H](Cc1c[nH]c2ccccc12)NC(=O)[C@H](CCC(N)=O)NC(=O)[C@@H](NC(=O)[C@H](Cc1ccccc1)NC(=O)CCCCCNC(=O)CN1CCN(CC(=O)O)CCN(CC(=O)O)CCN(CC(=O)O)CC1)C(C)C)C(=O)N[C@@H](CCC(=O)O)C(=O)N1CCC[C@H]1C(=O)N[C@@H](CC(=O)O)C(=O)N[C@H](C(=O)N[C@@H](CO)C(=O)N[C@@H](CCC(N)=O)C(=O)N[C@H](C(=O)N[C@@H](CCC(N)=O)C(=O)N[C@@H](CC(=O)O)C(=O)N1CCC[C@H]1C(=O)N[C@@H](CC(N)=O)C(=O)N[C@@H](CC(=O)O)C(=O)N[C@@H](CCC(N)=O)C(=O)N[C@@H](Cc1ccc(O)cc1)C(=O)N[C@@H](CCC(=O)O)C(=O)N1CCC[C@H]1C(=O)N[C@@H](Cc1ccccc1)C(=O)O)C(C)C)C(C)C` [copper-64 labelled] the tissue uptake was 1.29 ± 0.1 %ID/g (C57BL/6 male mouse, tumour-naive, bone; 24 h).
`CC(=O)c1c(C)c2cnc(Nc3ccc(N4CCNCC4)cn3)nc2n(C2CCCC2)c1=O` — result for “blood urea nitrogen”: 18.2 ± 5.8 mg/dL (C57BL/6 mice, blood; 25 mg/kg, P25, dosed P10 to P24).
For `CC[C@H](C)[C@H](NC(=O)[C@H](C)NC(=O)[C@H](CCCCN)NC(=O)[C@H](CC(C)C)NC(=O)[C@@H](N)Cc1ccccc1)C(=O)N[C@@H](CCCCN)C(=O)N[C@@H](CCCCN)C(=O)N[C@@H](Cc1ccccc1)C(=O)NCC(=O)N[C@@H](CCCCN)C(=O)N[C@@H](CCC(=O)O)C(=O)N[C@@H](Cc1ccccc1)C(=O)N[C@@H](CCCCN)C(=O)N[C@@H](CCCCN)C(=O)N[C@H](C(=O)NCC(=O)N[C@@H](C)C(=O)N[C@@H](CCCCN)C(=O)N[C@@H](CC(C)C)C(=O)N[C@@H](CCCCN)C(=O)O)[C@@H](C)CC`, the hemolysis was 0.327% and 1.12% (human red blood cells; 2 mg/L, 1 h).
The MRT(0-inf) of `CCCCCCCCCCCCCC(=O)N[C@H](CCN)C(=O)N[C@@H]1C(=O)N[C@@H](CCN)C(=O)N[C@@H](CC(C)C)C(=O)N[C@@H](CCN)C(=O)N[C@H](Cc2ccccc2)C(=O)N[C@@H](CC(C)C)C(=O)N[C@@H](CCN)C(=O)N[C@H](CCN)C(=O)N[C@@H](C(C)C)C(=O)N[C@@H](CC(=O)O)C(=O)O[C@@H]1C` is reported as 4.82 h (rat, plasma; intravenous, 5 mg/kg).
`CN[C@H](CC(C)C)C(=O)N[C@H]1C(=O)N[C@@H](CC(N)=O)C(=O)N[C@H]2C(=N)N[C@H]3C(=O)N[C@H](C(=O)N[C@H](C(=O)NCCCNC(=N)N)c4cc(O)cc(O)c4-c4cc3ccc4O)[C@H](O)c3ccc(c(Cl)c3)Oc3cc2cc(c3O[C@@H]2O[C@H](CO)[C@@H](O)[C@H](O)[C@H]2O[C@H]2C[C@](C)(NCc3ccc(-c4ccc(Cl)cc4)cc3)[C@H](O)[C@H](C)O2)Oc2ccc(cc2Cl)[C@H]1O` gave an AUC of 106 µM·h (mouse; intravenous, 10 mg/kg).
The t1/2 of `C#Cc1c(F)ccc2cc(O)cc(-c3ncc4c(N5CC6CCC(C5)N6C(=O)OC(C)OC(=O)CC56CC7CC(CC(C7)C5)C6)nc(OC[C@@]56CCCN5C[C@H](F)C6)nc4c3F)c12` (some centres unmarked) is reported as 2.32 h (measured: prodrug; mouse whole blood; 1 µM).
`C=Cc1c(C)c2cc3nc(c(CC(=O)[O-])c4[n-]c(cc5nc(cc1[n-]2)C(C)=C5CC)c(C)c4C(=O)[O-])C(CCC(=O)[O-])C3C.[Cu+2].[Na+].[Na+].[Na+]` (centres unmarked): “minimum lethal dose” > 5000 mg/kg (BALB/c mouse; oral, acute toxicity).
For `CC1(C)C(=O)N(c2ccc(C#N)c(C(F)(F)F)c2)C(=S)N1c1ccc(C(=O)O)c(F)c1`, the Cmax was 155 ± 52.8 ng/mL (human, male, plasma; oral, 160 mg, soft capsule).
For `CC(=O)NCCCC[C@@H]1NC(=O)[C@H](Cc2c[nH]c3c(C)cccc23)NC(=O)[C@H]([C@@H](C)O)NC(=O)[C@H](CC(N)=O)NC(=O)[C@@H](NC(C)=O)C(C)(C)SSC(C)(C)[C@@H](C(=O)N[C@@H](Cc2ccc(OCCN)cc2)C(=O)N[C@@H](Cc2ccc3ccccc3c2)C(=O)NC2(C(=O)N[C@@H](CCC(=O)O)C(=O)N[C@@H](CC(N)=O)C(=O)N[C@@H](Cc3cccnc3)C(=O)N(C)CC(N)=O)CCOCC2)NC1=O`, the CL/F was 7070 L/h (human, plasma; oral, 300 mg, single dose, healthy volunteers).
For `CSCC[C@H](NC(=O)CNC(=O)[C@H](CCCCN)NC(=O)[C@H](CC(C)C)NC(=O)[C@@H]1CCCN1C(=O)[C@H](CO)NC(=O)[C@H](Cc1c[nH]cn1)NC(=O)[C@H](Cc1c[nH]c2ccccc12)NC(=O)[C@H](CCCNC(=N)N)NC(=O)[C@H](CC(C)C)NC(=O)[C@H](CCCNC(=N)N)NC(=O)[C@H](Cc1c[nH]c2ccccc12)NC(=O)[C@H](CS)NC(=O)CCCCCNC(=O)CN1CCN(CC(=O)O)CCN(CC(=O)O)CCN(CC(=O)O)CC1)C(=O)O` [copper-64 labelled], the tissue uptake was 4.48 ± 0.29 %ID/g (PET; C57BL/6J mice, B16-F10 tumour, liver; intravenous, 38 h).
With `NC1CCN(C(=O)Oc2ccc(C3CCCC4(C3)OOC3(O4)C4CC5CC(C4)CC3C5)cc2)CC1` (racemic) the parent remaining was 79% (citrate buffer; 8 h, anaerobic, added: 50 mM ferrous iron).
`N=C(N)NCCC[C@H](NC(=O)[C@H](CCCNC(=N)N)NC(=O)[C@H](CCCNC(=N)N)NC(=O)[C@H](CCC(N)=O)NC(=O)[C@H](CCCNC(=N)N)NC(=O)[C@H](CCCNC(=N)N)NC(=O)[C@H](CCCCN)NC(=O)[C@H](CCCCN)NC(=O)[C@H](CCCNC(=N)N)NC(=O)CNC(=O)[C@H](Cc1ccc(O)cc1)NC(=O)[C@H](Cc1ccccc1)NC(=O)[C@H](Cc1ccccc1)NC(=O)[C@H](Cc1ccccc1)NC(=O)OCC1c2ccccc2-c2ccccc21)C(=O)O` has a health score of 5 (C57BL/6 mice; intraperitoneal, 5 mg/kg, 12 h; direction not given).
With `O=C1NC2(CC2)COc2ncc(F)cc2[C@H]2COCCN2c2ccn3ncc1c3n2` the haematocrit was 39.7 ± 5.1% (Sprague-Dawley rats, female, blood; oral, 20 mg/kg/day, end of treatment, 4-week subacute toxicity).
`Cc1cc(-c2ccc3ccccc3c2)nnc1NCCN1CCN(C)CC1` gave a microsomal CLint of < 23.1 µL/min/mg (metabolic stability; rat, liver microsomes).
The concentration of `CN1Cc2cc(Cl)ccc2-n2c(nnc2C2CCN(c3cccc(F)n3)CC2)C1` is reported as 3.14 ± 0.31 ng/mL (Sprague-Dawley rats male, striatum; intravenous, 0.03 mg/kg, 30 min).
With `CC(=O)N(Cc1ccccc1)[C@@H](C)C(=O)N(CCO)[C@@H](C)C(=O)N(Cc1c[nH]c2cc(Cl)ccc12)[C@@H](C)C(=O)N(CCO)[C@@H](C)C(=O)N(CCC(C)(C)C)[C@@H](C)C(N)=O` the Papp was 0.14 ×10⁻⁶ cm/s (PAMPA; 10 µM, 4 h, pH 7.4).
`CC(C)[C@@H]1NC(=O)CNC(=O)[C@H](CC(N)=O)NC(=O)[C@H](CCCNC(=N)N)NC(=O)[C@H](Cc2ccc(O)cc2)NC(=O)[C@H](C(C)C)NC(=O)[C@@H](NC(=O)[C@@H](NC(=O)[C@H](CC(N)=O)NC(=O)[C@H](Cc2c[nH]c3ccccc23)NC(=O)[C@H](C)NC(=O)[C@H](Cc2ccccc2)NC(=O)CNC(=O)[C@H](CCCCN)NC(=O)[C@H](Cc2ccccc2)NC(=O)[C@H](Cc2ccccc2)NC(=O)[C@H](CCCCN)NC(=O)OCC2c3ccccc3-c3ccccc32)C(C)C)CSSC[C@@H](C(=O)N[C@@H](Cc2c[nH]cn2)C(=O)N[C@@H](CCCNC(=N)N)C(=O)N[C@@H](CCCNC(=N)N)C(=O)N[C@@H](C)C(=O)N[C@@H](CC(N)=O)C(N)=O)NC(=O)[C@H](C(C)C)NC(=O)[C@H](CCCNC(=N)N)NC1=O` gave a haematocrit of 41.7 ± 1.76% (ICR mouse, blood; intramammary, 5 mg/kg, day 5, 3 d dosing).
Under “uptake in small intestine with contents”, `N#[11C]c1ccc(-c2csc(NN=C3CCCC3)n2)cc1` is recorded as 24.2 ± 3.83 %ID/g (C57BL/6 mouse, male; intravenous, 3 MBq, 5 min).
With `COc1cnc2cccc(N3CCc4c(cc(Cn5ccnc5)cc4-c4cn(C)nc4C(F)(F)F)C3=O)c2c1` the body weight was 29.6 ± 0.5 g (CD-1 mice; intraperitoneal, 50 mg/kg once daily, day 4).
With `CSCC[C@H](N)C(=O)N[C@@H](C)C(=O)N[C@@H](Cc1c[nH]c2ccccc12)C(=O)N[C@@H](Cc1c[nH]cn1)C(=O)N[C@@H](CC(=O)O)C(=O)N[C@@H](CC(=O)O)C(=O)N[C@@H](CCC(=O)O)C(=O)N[C@@H](CCC(=O)O)C(=O)N[C@@H](Cc1ccccc1)C(=O)N[C@@H](C)C(=O)N[C@@H](CCCNC(=N)N)C(=O)N[C@@H](CCCNC(=N)N)C(=O)N[C@@H](CCCNC(=N)N)C(=O)N[C@@H](CCCNC(=N)N)C(=O)NCCCCCC(=O)NCCCCC(NC(=O)CCCCCNC(=O)[C@H](CCCNC(=N)N)NC(=O)[C@H](CCCNC(=N)N)NC(=O)[C@H](CCCNC(=N)N)NC(=O)[C@H](CCCNC(=N)N)NC(=O)[C@H](C)NC(=O)[C@H](Cc1ccccc1)NC(=O)[C@H](CCC(=O)O)NC(=O)[C@H](CCC(=O)O)NC(=O)[C@H](CC(=O)O)NC(=O)[C@H](CC(=O)O)NC(=O)[C@H](Cc1c[nH]cn1)NC(=O)[C@H](Cc1c[nH]c2ccccc12)NC(=O)[C@H](C)NC(=O)[C@@H](N)CCSC)C(=O)NCCCCC(NC(=O)C(CCCCNC(=O)CCCCCNC(=O)[C@H](CCCNC(=N)N)NC(=O)[C@H](CCCNC(=N)N)NC(=O)[C@H](CCCNC(=N)N)NC(=O)[C@H](CCCNC(=N)N)NC(=O)[C@H](C)NC(=O)[C@H](Cc1ccccc1)NC(=O)[C@H](CCC(=O)O)NC(=O)[C@H](CCC(=O)O)NC(=O)[C@H](CC(=O)O)NC(=O)[C@H](CC(=O)O)NC(=O)[C@H](Cc1c[nH]cn1)NC(=O)[C@H](Cc1c[nH]c2ccccc12)NC(=O)[C@H](C)NC(=O)[C@@H](N)CCSC)NC(=O)CCCCCNC(=O)[C@H](CCCNC(=N)N)NC(=O)[C@H](CCCNC(=N)N)NC(=O)[C@H](CCCNC(=N)N)NC(=O)[C@H](CCCNC(=N)N)NC(=O)[C@H](C)NC(=O)[C@H](Cc1ccccc1)NC(=O)[C@H](CCC(=O)O)NC(=O)[C@H](CCC(=O)O)NC(=O)[C@H](CC(=O)O)NC(=O)[C@H](CC(=O)O)NC(=O)[C@H](Cc1c[nH]cn1)NC(=O)[C@H](Cc1c[nH]c2ccccc12)NC(=O)[C@H](C)NC(=O)[C@@H](N)CCSC)C(N)=O` (some centres unmarked) the tissue distribution was 15.3% and 18.8% and 13.3% (mouse C57BL/6 female, small intestine; 3 h, radioiodinated peptide; reference: total radioactivity).

Repeated from above:
With `NC1CCN(C(=O)Oc2ccc(C3CCCC4(C3)OOC3(O4)C4CC5CC(C4)CC3C5)cc2)CC1` (racemic) the parent remaining was 79% (citrate buffer; 8 h, anaerobic, added: 50 mM ferrous iron).
`N=C(N)NCCC[C@H](NC(=O)[C@H](CCCNC(=N)N)NC(=O)[C@H](CCCNC(=N)N)NC(=O)[C@H](CCC(N)=O)NC(=O)[C@H](CCCNC(=N)N)NC(=O)[C@H](CCCNC(=N)N)NC(=O)[C@H](CCCCN)NC(=O)[C@H](CCCCN)NC(=O)[C@H](CCCNC(=N)N)NC(=O)CNC(=O)[C@H](Cc1ccc(O)cc1)NC(=O)[C@H](Cc1ccccc1)NC(=O)[C@H](Cc1ccccc1)NC(=O)[C@H](Cc1ccccc1)NC(=O)OCC1c2ccccc2-c2ccccc21)C(=O)O` has a health score of 5 (C57BL/6 mice; intraperitoneal, 5 mg/kg, 12 h; direction not given).
